Measured values pooled from the literature.
Lines come from different studies, so protocols differ. Numbers after ± are the reported error.

Chains of the proteins cited; added tags and fusions are not shown.
UniProt Q99558, whole entry: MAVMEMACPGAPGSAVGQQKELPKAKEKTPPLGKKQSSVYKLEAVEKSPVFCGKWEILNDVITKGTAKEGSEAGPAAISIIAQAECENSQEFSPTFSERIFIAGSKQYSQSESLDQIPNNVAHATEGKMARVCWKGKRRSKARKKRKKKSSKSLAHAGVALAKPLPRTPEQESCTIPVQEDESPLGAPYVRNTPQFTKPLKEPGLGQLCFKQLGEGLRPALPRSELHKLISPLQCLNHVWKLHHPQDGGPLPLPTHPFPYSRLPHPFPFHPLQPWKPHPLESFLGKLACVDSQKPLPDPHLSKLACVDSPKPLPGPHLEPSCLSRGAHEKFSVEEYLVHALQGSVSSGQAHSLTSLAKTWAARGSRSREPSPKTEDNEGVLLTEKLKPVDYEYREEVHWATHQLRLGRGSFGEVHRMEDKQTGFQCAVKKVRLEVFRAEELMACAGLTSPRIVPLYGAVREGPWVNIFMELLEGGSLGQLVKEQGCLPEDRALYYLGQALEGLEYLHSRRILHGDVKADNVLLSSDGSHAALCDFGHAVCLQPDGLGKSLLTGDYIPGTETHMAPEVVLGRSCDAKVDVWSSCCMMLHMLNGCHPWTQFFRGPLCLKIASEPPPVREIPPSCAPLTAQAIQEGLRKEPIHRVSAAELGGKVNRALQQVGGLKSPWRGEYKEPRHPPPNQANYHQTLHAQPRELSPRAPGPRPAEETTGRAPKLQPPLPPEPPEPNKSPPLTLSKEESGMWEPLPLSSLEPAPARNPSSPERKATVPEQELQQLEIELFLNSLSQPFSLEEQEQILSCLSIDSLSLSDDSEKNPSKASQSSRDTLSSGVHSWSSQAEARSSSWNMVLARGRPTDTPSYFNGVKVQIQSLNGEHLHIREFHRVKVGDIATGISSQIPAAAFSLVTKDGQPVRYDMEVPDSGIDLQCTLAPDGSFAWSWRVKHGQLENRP
UniProt P29323, whole entry, looked up: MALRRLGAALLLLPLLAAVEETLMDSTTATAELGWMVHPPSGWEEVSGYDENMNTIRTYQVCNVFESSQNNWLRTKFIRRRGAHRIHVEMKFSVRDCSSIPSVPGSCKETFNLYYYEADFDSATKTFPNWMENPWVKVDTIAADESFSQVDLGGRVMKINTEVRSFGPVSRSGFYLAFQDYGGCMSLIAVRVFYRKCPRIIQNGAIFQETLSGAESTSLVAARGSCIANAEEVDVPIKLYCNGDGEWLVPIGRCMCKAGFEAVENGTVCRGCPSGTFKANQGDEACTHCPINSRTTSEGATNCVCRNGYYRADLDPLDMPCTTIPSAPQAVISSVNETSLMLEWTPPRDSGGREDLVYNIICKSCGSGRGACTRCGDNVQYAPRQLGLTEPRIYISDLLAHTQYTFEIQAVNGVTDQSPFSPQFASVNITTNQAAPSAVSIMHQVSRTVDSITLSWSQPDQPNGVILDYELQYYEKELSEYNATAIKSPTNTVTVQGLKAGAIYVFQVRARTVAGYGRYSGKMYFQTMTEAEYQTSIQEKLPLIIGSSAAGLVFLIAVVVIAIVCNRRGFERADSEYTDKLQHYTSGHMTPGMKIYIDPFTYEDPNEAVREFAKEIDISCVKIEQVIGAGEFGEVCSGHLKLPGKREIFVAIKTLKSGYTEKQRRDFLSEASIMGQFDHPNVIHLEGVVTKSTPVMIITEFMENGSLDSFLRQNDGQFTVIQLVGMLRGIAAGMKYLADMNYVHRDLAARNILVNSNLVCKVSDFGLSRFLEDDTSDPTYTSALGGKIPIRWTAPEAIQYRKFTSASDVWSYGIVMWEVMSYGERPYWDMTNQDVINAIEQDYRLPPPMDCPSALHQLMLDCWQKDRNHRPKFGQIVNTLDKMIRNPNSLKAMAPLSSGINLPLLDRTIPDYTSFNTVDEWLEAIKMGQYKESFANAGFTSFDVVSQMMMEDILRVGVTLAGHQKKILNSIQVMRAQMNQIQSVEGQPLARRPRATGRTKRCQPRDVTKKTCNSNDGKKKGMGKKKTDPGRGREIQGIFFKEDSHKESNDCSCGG

cisplatin  IC50 (H1975; viability, CellTiter-Glo; 72 h): 62 µM
COc1cc(S(=O)(=O)F)cc(OC)c1OC  IC50 (HCT-15; cell viability, CellTiter-Glo; 72 h): > 1.5 µM
C(CCCCCN1COOC2(CCCCCC2)OOC2(CCCCCC2)OOC1)CCCCN1COOC2(CCCCCC2)OOC2(CCCCCC2)OOC1  IC50 (Jurkat; cytotoxicity, 7-AAD flow cytometry): 1.56 ± 0.16 µM
Cc1cc(N(CCCl)CCCl)ccc1C(=O)O  IC50 (SN12K1; cell growth, inhibitor, MTT): 9.35 µg/mL
Cc1ccc(-c2csc(N(CC3OC(n4c[n+](Cc5ccccc5)c5c(=O)[nH]c(NC(=O)c6ccccc6)nc54)C4OC(C)(C)OC34)P(=O)([O-])O)n2)cc1 (centres unmarked)  IC50 (HepG2; cell growth, SRB): > 100 µM
Cc1cc(N(CCCl)CCCl)ccc1C=O  IC50 (SN12K1; cell growth, inhibitor, MTT): 10.4 µg/mL
CCN1CCN(Cc2ccc(NC(=O)c3ccc(C)c(/C=C/c4cnc5[nH]ccc5c4OC)c3)cc2C(F)(F)F)CC1  log2 fold change (Mitogen-activated protein kinase kinase kinase 14, with CDC37 (MAP3K14, Homo sapiens, UniProt Q99558); inhibitor, cell-based kinome screen; human cells; 5 µM; relative to: vehicle): 0.484
C1CCC2(C1)OOCOCOOC1(CCCC1)OO2  IC50 (Jurkat; cytotoxicity, 7-AAD flow cytometry): 6.33 ± 0.12 µM
CC#C/C(=N\OC[C@H]1COCCN1)c1ccc2ncnc(Nc3ccc(OCc4cccc(F)c4)c(Cl)c3)c2c1  inhibition (EPHB2 (Homo sapiens, UniProt P29323); kinase activity; 10 µM): 1.6%
CC1CCC2(CC1)OOCOCOOC1(CCC(C)CC1)OO2 (centres unmarked)  IC50 (Jurkat; cytotoxicity, 7-AAD flow cytometry): 7.62 ± 0.14 µM
fluorouracil  IC50 (NCM460; cell viability, MTS): 44.6 ± 4.69 µM

Repeated from above:
fluorouracil  IC50 (NCM460; cell viability, MTS): 44.6 ± 4.69 µM
